Results from different studies.
Protocols differ between the studies behind these lines. ± gives the spread as reported. Converted amounts (≈) assume the structure as drawn.

Structure (SMILES)	tested on	test	test system	setting	how to read	endpoint	result
O=C(/C=C/c1ccc(C(F)(F)F)cc1)c1ccc(NS(=O)(=O)c2ccc(C(F)(F)F)cc2)cc1	Danio rerio	–	wild type, embryos	immersion, up to 120 hpf, exposure from 5 hpf	–	LC50	11.7 µM
CCN1CCN(Cc2ccc(CNc3nc(N(C)C)nc(N(C)C)c3/N=N/c3ccc(Cl)cc3)cc2)CC1	Plutella xylostella	leaf dipping	–	50 mg/L, 96 h	–	mortality	73.3 ± 5.8%
Cc1nc2cccc(OCC(C)(C)C(=O)NC(C)C)c2c(N)c1C(=O)[O-].[Na+]	Salmonella typhimurium	reverse mutation, plate incorporation	TA98	0.13 mg/plate, without S9	–	revertant colonies	26 ± 3 colonies/plate
CC(C)C[C@H](NC(=O)[C@H](CC(C)C)NC(=O)[C@H](CCCCN)NC(=O)[C@H](Cc1ccccc1)NC(=O)[C@@H](NC(=O)[C@H](CCCNC(=N)N)NC(=O)[C@@H](N)CCCCN)C(C)C)C(=O)N[C@@H](CCCCN)C(=O)N[C@@H](CCCNC(=N)N)C(=O)N[C@@H](Cc1ccc(O)cc1)C(=O)N[C@@H](Cc1c[nH]c2ccccc12)C(=O)N[C@@H](CCCNC(=N)N)C(=O)N[C@@H](CCC(N)=O)C(=O)N[C@@H](CC(C)C)C(=O)N[C@@H](CCCCN)C(=O)N[C@@H](CCCCN)C(=O)N1CCC[C@H]1C(=O)N[C@H](C(=O)N[C@@H](CCCNC(=N)N)C(=O)NCCOCCOCC(=O)O)C(C)C	Pseudomonas aeruginosa	–	–	6 h, 37 °C, serum stability, together with: 50% human serum	reference: without serum	MIC increase	8.5 fold
CC[C@H](C)[C@H](NC(=O)[C@H](CCCCN)NC(=O)[C@H](CCCCN)NC(=O)[C@H](Cc1ccccc1)NC(=O)[C@H](Cc1ccccc1)NC(=O)[C@H](CCCCN)NC(=O)[C@H](CCCCN)NC(=O)[C@H](Cc1ccccc1)NC(=O)[C@H](CCCNC(=N)N)NC(=O)[C@@H](N)CCCCN)C(=O)N[C@@H](CCCCN)C(=O)N[C@@H](CCCCN)C(=O)N[C@@H](CO)C(=O)N[C@H](C(=O)N[C@@H](CCCCN)C(=O)N[C@@H](CCCCN)C(=O)N[C@@H](CCCNC(=N)N)C(=O)N[C@H](C(=O)N[C@@H](CCCCN)C(=O)N[C@@H](CCCCN)C(=O)N[C@@H](CC(C)C)C(=O)N[C@@H](Cc1ccccc1)C(=O)N[C@@H](CCCCN)C(=O)N[C@@H](CCCCN)C(=O)N1CCC[C@H]1C(=O)N[C@@H](CCCNC(=N)N)C(=O)N[C@H](C(=O)N[C@H](C(=O)N1CCC[C@H]1C(=O)N[C@H](C(=O)N[C@@H](CO)C(=O)N[C@H](C(=O)N1CCC[C@H]1C(=O)N[C@@H](Cc1ccccc1)C(=O)O)[C@@H](C)CC)[C@@H](C)CC)[C@@H](C)CC)C(C)C)C(C)C)C(C)C	Pseudomonas aeruginosa	–	P1, mouse serum	0 h, 37 °C	–	MIC	4 µg/mL (≈ 0.948 µM)
CN(C)c1nc(NCc2ccc3ccccc3c2)c(/N=N/c2ccc(Cl)cc2)c(N(C)C)n1	Plutella xylostella	leaf dipping	–	50 mg/L, 96 h	–	mortality	80 ± 10%
C[C@H]1[C@@H](OCc2cn(-c3cc4ccc(O)cc4oc3=O)nn2)O[C@@H]2O[C@@]3(C)CC[C@H]4[C@H](C)CC[C@@H]1[C@@]24OO3	Plasmodium berghei	flow cytometry	infected mouse blood	3 µM, 1 h	–	uptake into uninfected RBC	3.8 ± 0.3 % stained cells
O=C(/C=C/c1cccc(C(F)(F)F)c1)c1ccc(NS(=O)(=O)c2ccc(C(F)(F)F)cc2)cc1	Danio rerio	–	wild type, embryos	immersion, up to 120 hpf, exposure from 5 hpf	–	LC50	12.9 µM
O=C1NC2(CC2)COc2ncc(F)cc2[C@H]2COCCN2c2ccn3ncc1c3n2	–	–	Sprague-Dawley rat, male, serum	oral, 10 mg/kg/day, 4 weeks daily, end of recovery period	–	creatinine	25.4 ± 4 µmol/L

Excerpt of the above:
Structure (SMILES)	tested on	test	test system	setting	how to read	endpoint	result
CC[C@H](C)[C@H](NC(=O)[C@H](CCCCN)NC(=O)[C@H](CCCCN)NC(=O)[C@H](Cc1ccccc1)NC(=O)[C@H](Cc1ccccc1)NC(=O)[C@H](CCCCN)NC(=O)[C@H](CCCCN)NC(=O)[C@H](Cc1ccccc1)NC(=O)[C@H](CCCNC(=N)N)NC(=O)[C@@H](N)CCCCN)C(=O)N[C@@H](CCCCN)C(=O)N[C@@H](CCCCN)C(=O)N[C@@H](CO)C(=O)N[C@H](C(=O)N[C@@H](CCCCN)C(=O)N[C@@H](CCCCN)C(=O)N[C@@H](CCCNC(=N)N)C(=O)N[C@H](C(=O)N[C@@H](CCCCN)C(=O)N[C@@H](CCCCN)C(=O)N[C@@H](CC(C)C)C(=O)N[C@@H](Cc1ccccc1)C(=O)N[C@@H](CCCCN)C(=O)N[C@@H](CCCCN)C(=O)N1CCC[C@H]1C(=O)N[C@@H](CCCNC(=N)N)C(=O)N[C@H](C(=O)N[C@H](C(=O)N1CCC[C@H]1C(=O)N[C@H](C(=O)N[C@@H](CO)C(=O)N[C@H](C(=O)N1CCC[C@H]1C(=O)N[C@@H](Cc1ccccc1)C(=O)O)[C@@H](C)CC)[C@@H](C)CC)[C@@H](C)CC)C(C)C)C(C)C)C(C)C	Pseudomonas aeruginosa	–	P1, mouse serum	0 h, 37 °C	–	MIC	4 µg/mL (≈ 0.948 µM)
